Measurements from different studies.
Protocols differ between the studies behind these lines. ± gives the spread as reported.
Cell line: MV4-11

For COc1ccc(C[C@H]2COC(=O)[C@@H]2Cc2ccc(OCCCCCC(=O)NO)c(OC)c2)cc1OC, the IC50 was 850 nM (cell growth or viability, CCK-8; 48 h).
Cc1ccc(NC(=O)c2ccc3c(c2)CC[C@@H]3N2CCN(C)CC2)cc1C#Cc1cnc2ccc(Cl)nn12 gave an IC50 of > 200 nM (cell growth; 72 h).
COc1cccc2c1C(=O)c1c(O)c3c(c(O)c1C2=O)C[C@@](O)(C(C)=O)C[C@@H]3O[C@H]1C[C@H](N)[C@H](O)[C@H](C)O1 gave a combination index of 0.87 ± 0.06 (72 h, together with: cytotoxic drug; below 1 means synergy).
The IC50 of COc1ccc(C[C@H]2COC(=O)[C@@H]2Cc2ccc(OCc3cn(CC(=O)Nc4ccccc4N)nn3)c(OC)c2)cc1OC is reported as > 5000 nM (cell growth or viability, CCK-8; 48 h).
C[C@@H]1CN(c2ccc(-c3cc(C(=O)NCCOCCOCCOCCOCCOCCOCCOCCOCCOCCNC(=O)/C=C/c4[nH]cc(C(=O)N[C@@H](CC(N)=O)c5ccc(F)c(Cl)c5)c4-c4ccc(Cl)cc4F)ccc3F)cc2NC(=O)c2c[nH]c(=O)cc2C(F)(F)F)C[C@H](C)N1C has an EC50 of 158 nM (cell growth or viability, ATP luminescence; 5 days).
The GI50 of CNC(=O)c1cc(OC)cc2c(N3CCc4c(cc(Cn5ccnc5)cc4-c4cn(C)nc4C(F)(F)F)C3=O)ccnc12 is reported as 23 nM (cell growth or viability, ATP luminescence; 5 days).
With O=C1c2c(O)ccc(O)c2C(=O)c2c(NCCNCCO)ccc(NCCNCCO)c21 the combination index was 0.82 ± 0.05 (72 h, together with: cytotoxic drug; below 1 means synergy).
Cc1ncsc1-c1ccc(CNC(=O)[C@@H]2C[C@@H](O)CN2C(=O)[C@@H](NC(=O)C2(F)CC2)C(C)(C)C)c(OCCOc2ccc(CN3CCN(c4cc(-c5ccccc5O)nnc4N)CC3)cc2)c1 gave an IC50 of 28 nM (cell proliferation, CellTiter-Glo; 168 h).
COc1ccc(C[C@H]2COC(=O)[C@@H]2Cc2ccc(OCCCCCCC(=O)NO)c(OC)c2)cc1OC gave an IC50 of 1660 nM (cell growth or viability, CCK-8; 48 h).
With CCc1cc(C(=O)NC)c2nccc(N3CCc4c(cc(Cn5ccnc5)cc4-c4cn(C)nc4C(F)(F)F)C3=O)c2c1 the GI50 was < 10 nM (cell growth or viability, ATP luminescence; 5 days).
CCn1cc(-c2cc(Cn3ccnc3)cc3c2CCN([C@@H](C)c2cc(OC)ccn2)C3=O)c(C(F)(F)F)n1 gave a GI50 of 9.7 nM (cell growth or viability, ATP luminescence; 5 days).
With CCCNNC(=O)c1ccc(CNC(=O)/C=C/c2ccccc2)cc1 the EC50 was < 50 nM (cell growth or viability, resazurin; 48 h).
With COc1ccc(C[C@H]2COC(=O)[C@@H]2Cc2ccc(OCC(=O)NCCC(=O)Nc3ccccc3N)c(OC)c2)cc1OC the IC50 was > 5000 nM (cell growth or viability, CCK-8; 48 h).

Excerpt of the above:
For COc1ccc(C[C@H]2COC(=O)[C@@H]2Cc2ccc(OCCCCCC(=O)NO)c(OC)c2)cc1OC, the IC50 was 850 nM (cell growth or viability, CCK-8; 48 h).
With O=C1c2c(O)ccc(O)c2C(=O)c2c(NCCNCCO)ccc(NCCNCCO)c21 the combination index was 0.82 ± 0.05 (72 h, together with: cytotoxic drug; below 1 means synergy).
